Published values of several laboratories.
Lines come from different studies, so protocols differ. Numbers after ± are the reported error.
Sequence of UniProt Q9LMA8 (whole entry, looked up): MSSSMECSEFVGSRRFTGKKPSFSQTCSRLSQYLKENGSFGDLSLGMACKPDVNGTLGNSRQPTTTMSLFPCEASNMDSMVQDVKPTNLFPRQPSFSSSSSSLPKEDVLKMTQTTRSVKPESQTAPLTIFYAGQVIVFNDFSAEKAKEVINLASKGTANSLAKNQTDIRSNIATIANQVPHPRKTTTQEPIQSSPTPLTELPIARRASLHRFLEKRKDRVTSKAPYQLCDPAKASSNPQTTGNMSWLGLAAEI
Sequence of UniProt P22303 (whole entry, looked up): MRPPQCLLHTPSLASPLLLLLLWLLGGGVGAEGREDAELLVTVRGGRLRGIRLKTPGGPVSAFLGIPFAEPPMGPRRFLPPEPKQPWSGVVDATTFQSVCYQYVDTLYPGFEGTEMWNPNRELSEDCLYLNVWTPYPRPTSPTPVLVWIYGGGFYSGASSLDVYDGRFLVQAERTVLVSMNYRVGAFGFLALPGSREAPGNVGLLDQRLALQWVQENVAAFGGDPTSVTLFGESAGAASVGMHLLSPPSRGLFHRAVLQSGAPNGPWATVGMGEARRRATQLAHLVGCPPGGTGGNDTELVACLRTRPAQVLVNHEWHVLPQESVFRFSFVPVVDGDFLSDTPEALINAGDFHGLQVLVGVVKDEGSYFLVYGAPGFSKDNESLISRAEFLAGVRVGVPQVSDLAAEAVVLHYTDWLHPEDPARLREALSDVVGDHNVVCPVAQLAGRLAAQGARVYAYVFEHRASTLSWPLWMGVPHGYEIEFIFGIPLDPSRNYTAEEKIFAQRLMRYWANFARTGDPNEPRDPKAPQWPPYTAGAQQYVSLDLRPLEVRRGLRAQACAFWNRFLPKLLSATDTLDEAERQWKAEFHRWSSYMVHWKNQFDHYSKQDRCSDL
Sequence of UniProt O04197 (whole entry, looked up): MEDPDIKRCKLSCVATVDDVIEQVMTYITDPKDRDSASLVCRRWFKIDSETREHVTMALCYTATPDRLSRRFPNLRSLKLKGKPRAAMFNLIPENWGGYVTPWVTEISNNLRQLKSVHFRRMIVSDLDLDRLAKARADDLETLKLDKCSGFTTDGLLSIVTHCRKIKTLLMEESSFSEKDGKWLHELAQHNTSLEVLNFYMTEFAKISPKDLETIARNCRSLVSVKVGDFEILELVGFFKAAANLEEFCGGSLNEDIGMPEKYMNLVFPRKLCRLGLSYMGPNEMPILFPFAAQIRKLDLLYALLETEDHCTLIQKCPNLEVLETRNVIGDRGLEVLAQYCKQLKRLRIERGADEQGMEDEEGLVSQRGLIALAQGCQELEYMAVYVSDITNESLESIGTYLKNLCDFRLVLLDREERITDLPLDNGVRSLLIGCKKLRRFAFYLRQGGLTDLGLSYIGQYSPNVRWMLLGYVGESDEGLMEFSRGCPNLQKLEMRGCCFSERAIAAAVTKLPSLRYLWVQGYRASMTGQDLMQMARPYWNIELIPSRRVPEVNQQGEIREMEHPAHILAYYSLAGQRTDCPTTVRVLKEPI
Sequence of UniProt P02770 (whole entry, looked up): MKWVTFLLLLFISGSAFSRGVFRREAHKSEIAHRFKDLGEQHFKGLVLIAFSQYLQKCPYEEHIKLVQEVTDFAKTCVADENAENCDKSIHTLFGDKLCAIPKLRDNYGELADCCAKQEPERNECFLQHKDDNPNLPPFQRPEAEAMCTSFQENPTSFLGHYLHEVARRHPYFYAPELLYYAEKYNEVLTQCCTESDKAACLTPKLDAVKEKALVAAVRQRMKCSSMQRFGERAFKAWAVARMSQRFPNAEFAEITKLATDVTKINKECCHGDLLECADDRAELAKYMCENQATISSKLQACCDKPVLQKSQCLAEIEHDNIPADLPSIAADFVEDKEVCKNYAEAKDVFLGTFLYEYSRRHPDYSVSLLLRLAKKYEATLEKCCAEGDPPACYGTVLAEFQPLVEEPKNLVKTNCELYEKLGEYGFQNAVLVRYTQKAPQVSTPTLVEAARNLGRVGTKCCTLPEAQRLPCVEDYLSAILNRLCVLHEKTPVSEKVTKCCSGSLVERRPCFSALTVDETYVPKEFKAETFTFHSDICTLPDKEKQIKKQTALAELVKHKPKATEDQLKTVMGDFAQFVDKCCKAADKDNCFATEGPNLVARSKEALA

SMILES = CCC1=NC2CC3(C(=O)N(OC)c4cc(OC)ccc43)C3CC1C2CO3 (stereo not drawn); test system = Kunming mice both sexes; setting = intraperitoneal, 7 days; endpoint = LD50; value = 0.56 mg/kg
SMILES = CCC1C=C(C(=O)NC2(C(=O)O)CC2CC)C2CCC(=O)C2C1 (stereo not drawn); target or system = COI1/TIFY10A, with JAZ1 (Arabidopsis thaliana, UniProt O04197+Q9LMA8); test = binding, radioligand saturation binding; test system = COI1-ASK1 complex; setting = Arabidopsis thaliana proteins, together with: full-length JAZ1; endpoint = Kd; value = 48 nM
SMILES = CCOP(=O)(OCC)Oc1nc(Cl)c(Cl)cc1Cl; target or system = Albumin (Alb, Rattus norvegicus, UniProt P02770); test = [3H]DFP labelling; setting = concentration not given; how to read = baseline: control; endpoint = binding reduction; value = 56 ± 2%
SMILES = CC[C@H](C)[C@H](NC(=O)CNC(=O)[C@H](C)NC(=O)[C@H](CCC(=O)O)NC(=O)[C@@H]1CCCN1C(=O)[C@@H](N)CC(=O)O)C(=O)NCC(=O)N[C@@H](C)C(=O)N[C@H](C(=O)N[C@@H](CC(C)C)C(=O)N[C@@H](CCCCN)C(=O)N[C@H](C(=O)N[C@@H](CC(C)C)C(=O)N[C@H](C(=O)N[C@H](C(=O)NCC(=O)N[C@@H](CC(C)C)C(=O)N1CCC[C@H]1C(=O)N[C@@H](C)C(=O)N[C@@H](CC(C)C)C(=O)N[C@H](C(=O)N[C@@H](CO)C(=O)N[C@@H](Cc1c[nH]c2ccccc12)C(=O)N[C@H](C(=O)N[C@@H](CCCCN)C(=O)N[C@@H](CCCNC(=N)N)C(=O)N[C@@H](CCCCN)C(=O)N[C@@H](CCCNC(=N)N)C(=O)N[C@@H](CCC(N)=O)C(=O)N[C@@H](CCC(N)=O)C(N)=O)[C@@H](C)CC)[C@@H](C)CC)[C@@H](C)O)[C@@H](C)O)C(C)C)C(C)C; target or system = human erythrocytes, washed; setting = 1 h, 37 °C, 2% v/v RBC suspension; endpoint = HD50; value = 4.7 ± 0.3 µmol/L
SMILES = CC(C)C[C@@H]1NC(=O)[C@H](CCCNC(=N)N)NC(=O)[C@@H]2CCCN2C(=O)[C@@H]2CSSC[C@H](NC(=O)CNC(=O)[C@@H]3CCCN3C(=O)[C@H](CCCCN)NC(=O)[C@H](CC(=O)O)NC(=O)[C@@H](NC(=O)CN)C(C)C)C(=O)N[C@@H](CCCNC(=N)N)C(=O)N[C@@H](Cc3ccc(O)cc3)C(=O)N[C@@H](CC(C)C)C(=O)N[C@@H](Cc3ccccc3)C(=O)NCC(=O)NCC(=O)N[C@H]3CSSC[C@H](NC(=O)CNC1=O)C(=O)N[C@@H](CCCCN)C(=O)NCC(=O)N[C@@H](CCCCN)C(=O)NCC(=O)N[C@@H](Cc1c[nH]cn1)C(=O)N[C@@H](CC(=O)O)C(=O)N[C@@H](Cc1ccc(O)cc1)C(=O)N[C@H](C(=O)N[C@@H](C)C(=O)N[C@@H](Cc1c[nH]c4ccccc14)C(=O)N[C@@H](CC(=O)O)C(=O)NCC(=O)N[C@H](C(=O)N[C@@H](Cc1ccccc1)C(=O)N[C@@H](CO)C(=O)N[C@@H](CC(=O)O)C(=O)O)[C@@H](C)O)CSSC[C@H](NC(=O)[C@H](CC(=O)O)NC(=O)[C@H](CC(=O)O)NC(=O)[C@H](CC(=O)O)NC(=O)[C@H](CO)NC(=O)[C@H](CCCCN)NC3=O)C(=O)N2; test system = mouse small DRG neurons; setting = 1 µM; endpoint = neurons with more action potentials; value = 83%
SMILES = CCOP(=O)(OCC)Oc1cc(C)nc(C(C)C)n1; target or system = ACHE (Homo sapiens, UniProt P22303); test = enzyme activity, inhibitor, Ellman; setting = with preincubation; endpoint = IC50; value = ~500 nM
SMILES = CC[C@H](C)[C@H](NC(=O)CNC(=O)[C@H](C)NC(=O)[C@H](CCC(=O)O)NC(=O)[C@@H]1CCCN1)C(=O)NCC(=O)N[C@@H](C)C(=O)N[C@H](C(=O)N[C@@H](CC(C)C)C(=O)N[C@@H](CCCCN)C(=O)N[C@H](C(=O)N[C@@H](CC(C)C)C(=O)N[C@H](C(=O)N[C@H](C(=O)NCC(=O)N[C@@H](CC(C)C)C(=O)N1CCC[C@H]1C(=O)N[C@@H](C)C(=O)N[C@@H](CC(C)C)C(=O)N[C@H](C(=O)N[C@@H](CO)C(=O)N[C@@H](Cc1c[nH]c2ccccc12)C(=O)N[C@H](C(=O)N[C@@H](CCCCN)C(=O)N[C@@H](CCCNC(=N)N)C(=O)N[C@@H](CCCCN)C(=O)N[C@@H](CCCNC(=N)N)C(=O)N[C@@H](CCC(N)=O)C(=O)N[C@@H](CCC(N)=O)C(N)=O)[C@@H](C)CC)[C@@H](C)CC)[C@@H](C)O)[C@@H](C)O)C(C)C)C(C)C; target or system = human erythrocytes, washed; setting = 1 h, 37 °C, 2% v/v RBC suspension; endpoint = HD50; value = 1.8 ± 0.1 µmol/L
SMILES = O=c1ccn(C2OC(F)(CO)C(O)C2O)c(=O)[nH]1 (stereo not drawn); target or system = Lassa virus; test system = HeLa, clade IV Josiah; endpoint = EC50; value = 1000 ± 610 nM
SMILES = CC=C1CNC2CC3(C(=O)N(OC)c4ccccc43)C3CC1C2CO3 (stereo not drawn); test system = Kunming mice both sexes; setting = intraperitoneal, 7 days; endpoint = LD50; value = 0.21 mg/kg

A few entries again:
SMILES = CC(C)C[C@@H]1NC(=O)[C@H](CCCNC(=N)N)NC(=O)[C@@H]2CCCN2C(=O)[C@@H]2CSSC[C@H](NC(=O)CNC(=O)[C@@H]3CCCN3C(=O)[C@H](CCCCN)NC(=O)[C@H](CC(=O)O)NC(=O)[C@@H](NC(=O)CN)C(C)C)C(=O)N[C@@H](CCCNC(=N)N)C(=O)N[C@@H](Cc3ccc(O)cc3)C(=O)N[C@@H](CC(C)C)C(=O)N[C@@H](Cc3ccccc3)C(=O)NCC(=O)NCC(=O)N[C@H]3CSSC[C@H](NC(=O)CNC1=O)C(=O)N[C@@H](CCCCN)C(=O)NCC(=O)N[C@@H](CCCCN)C(=O)NCC(=O)N[C@@H](Cc1c[nH]cn1)C(=O)N[C@@H](CC(=O)O)C(=O)N[C@@H](Cc1ccc(O)cc1)C(=O)N[C@H](C(=O)N[C@@H](C)C(=O)N[C@@H](Cc1c[nH]c4ccccc14)C(=O)N[C@@H](CC(=O)O)C(=O)NCC(=O)N[C@H](C(=O)N[C@@H](Cc1ccccc1)C(=O)N[C@@H](CO)C(=O)N[C@@H](CC(=O)O)C(=O)O)[C@@H](C)O)CSSC[C@H](NC(=O)[C@H](CC(=O)O)NC(=O)[C@H](CC(=O)O)NC(=O)[C@H](CC(=O)O)NC(=O)[C@H](CO)NC(=O)[C@H](CCCCN)NC3=O)C(=O)N2; test system = mouse small DRG neurons; setting = 1 µM; endpoint = neurons with more action potentials; value = 83%
